Published values pooled from the literature.
Lines come from different studies, so protocols differ. Several values in a cell are separate wells, animals, samples, runs or records. Numbers after ± are the reported error.

For CC(CCC(=O)NCc1ccc(C(=O)NO)cc1)C1CCC2C3C(O)CC4CC(O)CCC4(C)C3CCC12C (centres unmarked), the relative abundance was 5.14% (refers to: CA; PCK rat (Pkhd1 mutant), bile; oral gavage, dose not given, 5 months; reference: total bile acids).
COC1CN([C@H]2CC[C@H]([C@@]3(C)Oc4c(Cl)cc(C(=O)NCc5c(SC)cc(C)[nH]c5=O)c(C)c4O3)CC2)C1 — result for “log2 fold change”: 0.407 (RNA-seq, refers to: SLC9A3R2 mouse homolog; mouse, HT-1376 xenograft, whole blood; dose not given; reference: vehicle).
Cc1ccc(C)c(OCC(O)CN2CCN(c3cc(Cl)ccc3C)CC2)c1 (centres unmarked): “third-quartile larval motion” 0 pixels/frame (locomotor activity in dark; Danio rerio larvae, 7 dpf, well of 10 larvae; 10 µM, minute 3, dark).
COc1ccc(C(=O)CCc2cc(C(CCc3ccc(O)cc3OC)c3ccc(O)cc3)c(O)cc2OC)cc1 (racemic) gave an amount of 227 ± 78 pg/mL blood (refers to: 12-HEPE; human whole blood; 1 µM, added: A23187).
The IC50 of CCOC(=O)CCCCC1NCCc2ccc(O)c(O)c21 (centres unmarked) is reported as 7.64 µM (DPPH scavenging, absorbance; 30 min, dark).
Under Ki-67 level, C=CC(=O)N1CC2C(=O)N(CCN(C)C)c3c(c4cc(Cl)c(-c5c(O)cccc5F)nc4n(-c4c(C)ccnc4C(C)C)c3=O)N2CC1C (centres unmarked) is recorded as “decreased” (immunohistochemistry; BALB/c nude mouse, H23-Luc intracranial tumour, brain tissue; 100 mg/kg, 21 days).
NNC(=O)Cc1ccccc1 gave a normalised absorbance of 0.612 (hydrazine ligation kinetics, absorbance; concentration not given, 25 s, added: 2-formylphenylboronic acid).
Under “third-quartile larval motion”, Cc1ccc(NC(=O)CCN2CCCCCC2)cc1C is recorded as 0.7 ± 0.7 pixels/frame (locomotor activity in dark; Danio rerio larvae, 7 dpf, well of 10 larvae; 10 µM, minute 5, dark).
Cc1cccc(C)c1CNc1cc(C(=O)N2CCC2)cn2c(C)c(C)nc12 gave an inhibition of 100% (histamine-stimulated acid secretion; dog, Heidenhain pouch; oral, 3 mg/kg, 3 h, 9 h after dosing).
Cc1ccc(S(=O)(=O)NN)cc1 gave a normalised absorbance of 0.875 (hydrazine ligation kinetics, absorbance; concentration not given, 40 s, added: 2-formylphenylboronic acid).
NC[C@@H](C(=O)Nc1ccc(-c2cn[nH]c2)cc1)c1ccccc1 has an IOP of 31.8 mmHg (tonometry; NZW rabbit, magnetic bead-induced ocular hypertension; ocular, 0.03%, 28 h).
COCCNCCOc1cc(C)cc(C(C)C)c1: “third-quartile larval motion” 6.7 ± 0.7 pixels/frame (locomotor activity in dark; Danio rerio larvae, 7 dpf, well of 10 larvae; 10 µM, minute 3, dark).
CC[C@H](C)[C@@H](C(=O)N[C@@H](CC(C)C)C(=O)N[C@@H](CO)C(=O)N[C@@H](CO)C(=O)N[C@H](C(=O)N[C@@H](CCC(=O)O)C(=O)N[C@H](C(=O)NCC(=O)N[C@@H](CO)C(=O)N[C@@H](CCCN)C(=O)N[C@H](C(=O)N1C[C@H](O)C[C@H]1C(N)=O)[C@@H](C)O)C(C)C)[C@@H](C)O)N(C)C(=O)[C@H](C)NC(=O)CN(C)C(=O)[C@H](Cc1ccccc1)NC(=O)[C@H](CO)NC(=O)[C@H](CO)NC(=O)[C@H](CCCNC(=N)N)NC(=O)[C@@H](NC(=O)[C@H](CC(C)C)NC(=O)[C@H](Cc1ccccc1)NC(=O)[C@H](Cc1c[nH]cn1)NC(=O)[C@H](C)NC(=O)[C@H](CC(C)C)NC(=O)[C@H](CCCNC(=N)N)NC(=O)[C@H](CCC(=O)O)NC(=O)[C@@H](NC(=O)[C@H](C)NC(=O)[C@@H]1CSSC[C@H](NC(=O)[C@H](CCCNC(=N)N)NC(=O)CC[C@H](NC(=O)CCCCCCCCCCCCCCCCCCC(=O)O)C(=O)O)C(=O)NCC(=O)N[C@@H]([C@@H](C)O)C(=O)N[C@@H](C)C(=O)N[C@@H]([C@@H](C)O)C(=O)N1)[C@@H](C)O)[C@@H](C)O — result for “body weight loss”: 7.2 ± 0.6% (male Sprague-Dawley rats; subcutaneous, 30 nmol/kg single dose, 96 h).
O=C(NCC1OC2CCC=CCCC2O1)c1ccc(F)nc1 (centres unmarked) — result for “observed rate constant kobs”: 78.2 ± 1.24 s⁻¹ (IEDDA cycloaddition, substrate, stopped-flow spectrophotometry; water/methanol 45:55; 0.25 mM, 298 K, added: 3,6-di(2-pyridyl)-tetrazine 0.05 mM).
The IL-1β inhibition of CN1CCC[C@]1(C)/C=C/S(=O)(=O)NC(=O)Nc1c2c(cc3c1CCC3)CCC2 is reported as 98.7% (human, whole blood ex vivo; 25 mg single dose, 3 h, single ascending dose, added: LPS and ATP).
For OCc1ccc(C2NCCc3cc(O)c(O)cc32)o1 (centres unmarked), the IC50 was 14.9 µM (DPPH scavenging, absorbance; 30 min, dark).
The normalised absorbance of CCOC(=O)NN is reported as 0.582 (hydrazine ligation kinetics, absorbance; concentration not given, 15 s, added: 2-formylphenylboronic acid).
For OC(COCC1COc2ccccc2O1)CN1CCN(c2ccccc2)CC1 (centres unmarked), “third-quartile larval motion” read 2 ± 0.7 pixels/frame (locomotor activity in dark; Danio rerio larvae, 7 dpf, well of 10 larvae; 10 µM, minute 3, dark).
CCCCCCCCCCCCCCCC(=O)OCC(CSC[C@H](N)C(=O)N[C@@H](CO)C(=O)N[C@@H](CCCCN)C(=O)N[C@@H](CCCCN)C(=O)N[C@@H](CCCCN)C(=O)N[C@@H](CCCCN)C(=O)NCCCCCC(=O)N[C@@H](CCCCN)C(=O)N[C@@H](CC(C)C)C(=O)N[C@H](C(=O)N[C@@H](Cc1ccccc1)C(=O)N[C@@H](Cc1ccccc1)C(=O)N[C@@H](Cc1ccc2ccccc2c1)C(=O)O)C(C)C)OC(=O)CCCCCCCCCCCCCCC (some centres unmarked) has an Iba1-positive area of 14.1% and 15.1% and 17.1% and 14.8% (APP/PS1 transgenic mouse, cortex; intracortical injection, dose not given, 5 d).
Under lipid content, COc1ccc(CCc2cc(OC)c(O)c(OC)c2)cc1OC is recorded as “decreased” (Oil Red O; 3T3-L1, mouse; 5 µM, day 8).
The radical scavenging of CCOCc1ccc(O[C@@H]2O[C@@H](C)[C@H](O)[C@@H](O)[C@H]2O)cc1 is reported as 5.06 ± 1.6% (DPPH radical; 300 µg/mL).
COc1cc2nc(N3CCN(C(=O)C4CC5(CCOCC5)CO4)CC3)nc(N)c2cc1OC (centres unmarked): “time to maximum BP lowering” 60 min (blood pressure; spontaneously hypertensive rat, male; oral, 3 mg/kg).
O=C(CCO)c1ccc(O)cc1 has a radical scavenging of 17.1 ± 0.59% (DPPH radical; 300 µg/mL).
CC[C@H](C)[C@@H](C(=O)N[C@@H](CC(C)C)C(=O)N[C@@H](CO)C(=O)N[C@@H](CO)C(=O)N[C@H](C(=O)N[C@@H](CCC(=O)O)C(=O)N[C@H](C(=O)NCC(=O)N[C@@H](CO)C(=O)N[C@@H](CO)C(=O)N[C@H](C(=O)N1C[C@H](O)C[C@H]1C(N)=O)[C@@H](C)O)C(C)C)[C@@H](C)O)N(C)C(=O)[C@H](C)NC(=O)CN(C)C(=O)[C@H](Cc1ccccc1)NC(=O)[C@H](CO)NC(=O)[C@H](CO)NC(=O)[C@H](CCCNC(=N)N)NC(=O)[C@H](CCC(N)=O)NC(=O)[C@H](CC(C)C)NC(=O)[C@H](Cc1ccccc1)NC(=O)[C@H](Cc1c[nH]cn1)NC(=O)[C@H](C)NC(=O)[C@H](CC(C)C)NC(=O)[C@H](CCCNC(=N)N)NC(=O)[C@H](CCC(=O)O)NC(=O)[C@@H](NC(=O)[C@H](C)NC(=O)[C@@H]1CSSC[C@H](NC(=O)[C@H](CCCNC(=N)N)NC(=O)CC[C@H](NC(=O)CCCCCCCCCCCCCCCCCCC(=O)O)C(=O)O)C(=O)NCC(=O)N[C@@H]([C@@H](C)O)C(=O)N[C@@H](C)C(=O)N[C@@H]([C@@H](C)O)C(=O)N1)[C@@H](C)O: “body weight loss” 6.3 ± 0.2% (male Sprague-Dawley rats; subcutaneous, 30 nmol/kg single dose, 96 h).
For COc1c(Cl)cccc1Nc1c(-c2ccncc2C#C[C@@]2(C)CCCN2C(=O)/C=C/CN(C)C)[nH]c2c1C(=O)NCC2, the tumour regression was 88.3% (female BALB/c nude mouse, sample A PDX; 25 mg/kg once daily, 28 days, EGFR ASV).
With COc1ccc(NC(=O)c2ccc3[nH]c(-c4ccc(N(C)C)cc4)nc3c2)cn1 the tumour volume was 42.2 mm3 and 237 mm3 and 224 mm3 and 246 mm3 and 197 mm3 (Lewis lung carcinoma, mice, syngeneic graft, subcutaneous; intraperitoneal, 50 mg/kg daily, day 7).
CC(=O)[O-].O.O.[O-]c1ccc(Br)cc1C=NCCN1CCOCC1.[Zn+2] has an inhibition of 41.8% (nitric oxide scavenging; 200 µM).
For CC(C)C[C@H](NC(=O)[C@H](Cc1ccccc1)NC(=O)[C@H](C)NC(=O)[C@@H](CS)NC(=O)CNC(=O)[C@H](N)CO)C(=O)N[C@@H](CO)C(=O)N[C@H](C(=O)N[C@@H](CCCCN)C(=O)N[C@@H](CCCCN)C(=O)N[C@@H](CCC(N)=O)C(=O)N[C@@H](Cc1ccccc1)C(=O)N[C@@H](CCC(=O)O)C(=O)N[C@@H](CCC(=O)O)C(=O)N[C@@H](CC(C)C)C(=O)N[C@H](C(=O)N[C@@H](CC(C)C)C(=O)NCC(=O)N[C@@H](CCC(=O)O)C(=O)N[C@@H](Cc1ccccc1)C(=O)N[C@@H](CC(C)C)C(=O)N[C@H](CCCCN)C(=O)N[C@H](CC(C)C)C(=O)N[C@H](CC(=O)O)C(=O)N[C@@H](CCCNC(=N)N)C(=O)N[C@H](CCCNC(=N)N)C(=O)N[C@@H](CCCNC(=N)N)C(=O)N[C@@H](CCCCN)C(=O)O)[C@@H](C)O)C(C)C, “Ki-67 expression decrease” read 80% (immunofluorescence, RT-qPCR; mouse A549 xenograft, tumour; intravenous, 20 mg/kg).
The colony survival of COc1ccccc1-c1ccncc1C(=O)Nc1nnc(OCc2ccc(Cl)cc2)s1 is reported as 46.6% (Brca1 Δ11/Δ11 MEF sgGFP, Mus musculus; 10 µM, mean of runs 2, 3; reference: 0 µM).
The tumour volume of CN1CCCNC(=O)c2cccc(c2)C(=O)NCCCN(C)CCCNc2cccc3c2C(=O)c2cccc(c2C3=O)NCCC1 is reported as 111 mm3 and 155 mm3 and 28.3 mm3 and 106 mm3 (KSN/Slc nude mice, SAS xenograft; dose not given, day 2, 48 h).
COc1ccc(N2CCN(CC(O)COc3ccc4ccccc4c3)CC2)cc1 (centres unmarked) — result for “third-quartile larval motion”: 4.5 ± 0.8 pixels/frame (locomotor activity in dark; Danio rerio larvae, 7 dpf, well of 10 larvae; 10 µM, minute 1, dark).
For CC(C)OC(=O)[C@H](CO)NCc1cc(Cl)c(OCc2cccc(-c3ccccc3)c2Br)cc1OCc1cccnc1, “tumour volume T/C” read 31.7% (hPD-L1 MC-38 tumour, humanised hPD-1 C57BL/6 mouse; oral, 10 mg/kg × 21, day 20; reference: vehicle).
